Experimental data of several laboratories.
Parts stem from different laboratories: compare values within a part only. Changes are numbered by the printed parent chain.

Set 1
Target: Sal-like protein 4, full length isoform A (SALL4, Homo sapiens, UniProt Q9UJQ4, residues 1-1053)
Chain of UniProt Q9UJQ4 (whole entry, looked up): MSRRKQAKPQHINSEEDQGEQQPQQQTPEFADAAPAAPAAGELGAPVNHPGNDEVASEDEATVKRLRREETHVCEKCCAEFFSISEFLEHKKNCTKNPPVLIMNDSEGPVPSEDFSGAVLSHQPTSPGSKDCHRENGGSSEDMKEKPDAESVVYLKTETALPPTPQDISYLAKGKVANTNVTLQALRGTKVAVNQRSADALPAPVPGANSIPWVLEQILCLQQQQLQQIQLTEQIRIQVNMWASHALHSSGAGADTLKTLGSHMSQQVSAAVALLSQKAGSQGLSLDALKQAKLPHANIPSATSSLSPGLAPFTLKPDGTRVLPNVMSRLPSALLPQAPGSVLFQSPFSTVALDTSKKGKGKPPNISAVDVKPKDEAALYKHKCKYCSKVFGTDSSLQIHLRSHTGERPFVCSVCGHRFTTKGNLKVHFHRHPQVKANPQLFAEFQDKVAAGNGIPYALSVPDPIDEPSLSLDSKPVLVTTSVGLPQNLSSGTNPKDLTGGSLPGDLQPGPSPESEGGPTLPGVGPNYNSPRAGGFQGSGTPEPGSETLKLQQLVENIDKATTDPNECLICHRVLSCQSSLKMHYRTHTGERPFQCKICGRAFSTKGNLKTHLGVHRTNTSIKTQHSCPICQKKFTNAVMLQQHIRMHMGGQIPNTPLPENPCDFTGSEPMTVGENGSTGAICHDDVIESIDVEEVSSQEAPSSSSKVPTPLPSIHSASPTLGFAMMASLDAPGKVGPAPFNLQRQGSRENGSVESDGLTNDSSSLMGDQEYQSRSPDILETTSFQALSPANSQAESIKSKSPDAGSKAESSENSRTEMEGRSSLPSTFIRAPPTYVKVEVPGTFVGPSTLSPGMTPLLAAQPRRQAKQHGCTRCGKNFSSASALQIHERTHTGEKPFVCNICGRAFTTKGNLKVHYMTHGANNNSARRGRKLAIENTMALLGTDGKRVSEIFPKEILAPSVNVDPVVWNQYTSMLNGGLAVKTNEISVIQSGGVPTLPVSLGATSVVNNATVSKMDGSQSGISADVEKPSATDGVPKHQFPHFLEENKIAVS
Technique: universal PBM
Form: double-stranded DNA, one strand shown
Sample: in vitro
Concentration: 600 nM
Setting: 8-mer, flanks averaged, mean of replicates
Direction: higher = stronger binding
Endpoint: E-score
Sequence = GCAGCACA; value = -0.182
Sequence = GCCAGTTA; value = 0.0253
Sequence = ACCTCCAA; value = -0.00462
Sequence = TACCAATA; value = 0.261
Sequence = CAACAACG; value = 0.00385
Sequence = CCATGCGG; value = -0.273
Sequence = CGAGCTGA; value = -0.131

Set 2
Target: Interferon regulatory factor 5, full length, phosphomimetic (IRF5, Homo sapiens, UniProt Q13568-2, residues 1-514, S451D/S453D/S456D/S462D)
Technique: protein-binding microarray
Form: double-stranded DNA, one strand shown
Sample: in vitro
Concentration: 940 nM top
Setting: 60-bp whole probe
Added: salmon DNA 0.4 mg/ml
Relative to: random background probes
Direction: higher = stronger binding
Endpoint: fitted relative affinity
All sequences stand within: GCCTAGCAC … GTCTTGATTCGCTTGACGCTGCTG
Sequence = GACGGTATCCTTATTCTGACGTGCTAG; value = 0.366 z-score
Sequence = TTACGTTTCGACTATCGGTTAGTGCTA; value = 5.62 z-score
Sequence = TCATCTTCATGTTTTTTACTGTGCTAG; value = 0.95 z-score
Sequence = TTAGAACTGCGTCTCGATTAGTGCTAG; value = 0.429 z-score
Sequence = TTAGGTCTCCTTATACTTTAGTGCTAG; value = 0.444 z-score
Sequence = TAAGGTATCGGGTTTCGGTTAGTGCTA; value = 7.48 z-score
Sequence = TTACAGCTATTTTTAGGATGGTGCTAG; value = -0.243 z-score
Sequence = GACGGTATCGGGTATCGTGACGTGCTA; value = 4.95 z-score

Set 3
Target: CCNE2, cyclin fold, Cln2 fusion (human)
Technique: yeast growth competition, sequencing
Sample: yeast
Setting: strong parent motif
Relative to: not given
Direction: higher = stronger binding
Endpoint: normalised enrichment score
Parent: BRCA2 docking peptide (human); PSIKRNLLNEFDR; partner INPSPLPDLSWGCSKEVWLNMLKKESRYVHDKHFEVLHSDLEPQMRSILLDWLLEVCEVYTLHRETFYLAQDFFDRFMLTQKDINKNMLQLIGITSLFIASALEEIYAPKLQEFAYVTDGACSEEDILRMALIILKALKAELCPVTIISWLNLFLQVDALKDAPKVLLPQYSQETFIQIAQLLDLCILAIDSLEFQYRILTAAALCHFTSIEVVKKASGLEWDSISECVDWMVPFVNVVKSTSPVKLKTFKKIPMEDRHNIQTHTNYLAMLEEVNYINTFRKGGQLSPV
Variant = PLIKRNLLNEFDR [S2L]; value = 1.75
Variant = PSIKRMLLNEFDR [N6M]; value = -0.0958
Variant = PSIIRNLLNEFDR [K4I]; value = 0.439
Variant = FSIKRNLLNEFDR [P1F]; value = 1.78

Other studies, line by line
Substance = PhoQ, residues 284 288 289 292 302 303 AAQSYM; target = PhoP, residues 12 14 15 18 19 AGCRL (Escherichia coli, UniProt P23836); assay = Sort-seq, refers to: YFP reporter; system = E. coli; setting = PhoQ-PhoP variant library, added: 10 µM Mg2+; scale = relative to: high Mg2+ state, higher = stronger signaling; endpoint = fold induction; value = 4.59

Some of these lines once more (set 2):
Sequence = TTACGTTTCGACTATCGGTTAGTGCTA; value = 5.62 z-score
Sequence = TCATCTTCATGTTTTTTACTGTGCTAG; value = 0.95 z-score
